Published values gathered from unrelated publications.
± marks the error that the study gave.
Method: steady-state kinetics
B1: PRP43 F357A (Saccharomyces cerevisiae, UniProt P53131); chain MGSKRRFSSEHPDPVETSIPEQAAEIAEELSKQHPLPSEEPLVHHDAGEFKGLQRHHTSAEEAQKLEDGKINPFTGREFTPKYVDILKIRRELPVHAQRDEFLKLYQNNQIMVFVGETGSGKTTQIPQFVLFDEMPHLENTQVACTQPRRVAAMSVAQRVAEEMDVKLGEEVGYSIRFENKTSNKTILKYMTDGMLLREAMEDHDLSRYSCIILDEAHERTLATDILMGLLKQVVKRRPDLKIIIMSATLDAEKFQRYFNDAPLLAVPGRTYPVELYYTPEFQRDYLDSAIRTVLQIHATEEAGDILLFLTGEDEIEDAVRKISLEGDQLVREEGCGPLSVYPLYGSLPPHQQQRIAEPAPESHNGRPGRKVVISTNIAETSLTIDGIVYVVDPGFSKQKVYNPRIRVESLLVSPISKASAQQRAGRAGRTRPGKCFRLYTEEAFQKELIEQSYPEILRSNLSSTVLELKKLGIDDLVHFDFMDPPAPETMMRALEELNYLACLDDEGNLTPLGRLASQFPLDPMLAVMLIGSFEFQCSQEILTIVAMLSVPNVFIRPTKDKKRADDAKNIFAHPDGDHITLLNVYHAFKSDEAYEYGIHKWCRDHYLNYRSLSAADNIRSQLERLMNRYNLELNTTDYESPKYFDNIRKALASGFFMQVAKKRSGAKGYITVKDNQDVLIHPSTVLGHDAEWVIYNEFVLTSKNYIRTVTSVRPEWLIEIAPAYYDLSNFQKGDVKLSLERIKEKVDRLNELKQGKNKKKSKHSKK
B2: cbh1 (Trichoderma reesei, UniProt P62694); chain QSACTLQSETHPPLTWQKCSSGGTCTQQTGSVVIDANWRWTHATNSSTNCYDGNTWSSTLCPDNETCAKNCCLDGAAYASTYGVTTSGNSLSIGFVTQSAQKNVGARLYLMASDTTYQEFTLLGNEFSFDVDVSQLPCGLNGALYFVSMDADGGVSKYPTNTAGAKYGTGYCDSQCPRDLKFINGQANVEGWEPSSNNANTGIGGHGSCCSEMDIWEANSISEALTPHPCTTVGQEICEGDGCGGTYSDNRYGGTCDPDGCDWNPYRLGNTSFYGPGSSFTLDTTKKLTVVTQFETSGAINRYYVQNGVTFQQPNAELGSYSGNELNDDYCTAEEAEFGGSSFSDKGGLTQFKKATSGGMVLVMSLWDDYYANMLWLDSTYPTNETSSTPGAVRGSCSTSSGVPAQVESQSPNAKVTFSNIKFGPIGSTGNPSGGNPPGGNRGTTTTRRPATTTGSSPGPTQSHYGQCGGIGYSGPTVCASGTTCQVLNPYYSQCL
B3: sacB Y196F/Y247F (Priestia megaterium, UniProt D5DC07); chain KGNDSKDFNNSYGISHITRDNMVKIPQQQNSDQFKVPAFDESTIKNIASAKGKNASGNTIDLDVWDSWPLQNADGTVATYHGYQIVFALAGDPKDSNDTSVYLFYKKAGDKSIDSWKNAGRVFKDSDKFVPNDPHLKNQTQEWSGSGTLTKDGKVRLFYTDYSGKQFGKQTLTTAQVNMSQPNDNTLKVDGVEDYKSIFDGDGKIYQTVQQFIDEGGFDTGDNHTLRDPHYIEDNGHKYLVFEANTGTEDGYQGEDSLYNRAYYGGNNPFFQSEKKKLLEGSNKEKASLANGALGIIELNDDYTLKKVMKPLITSNTVTDEIERANIFKKDGKWYLFTDSRGSKMTIDGIGQDDVYMLGYVSNTLTGKYKPLNDTGLVLHMDLDPNDKTFTYSHFAVPQTKGDNVVITSYMTNRGFYEDNHSTFAPSFLVNIDGSKTSVVKDRVLEQGQLTVDED
B4: GTPBP3 E315A (Homo sapiens, UniProt Q969Y2); chain TRRSSGAPAPGSGATIFALSSGQGRCGIAVIRTSGPASGHALRILTAPRDLPLARHASLRLLSDPRSGEPLDRALVLWFPGPQSFTGEDCVEFHVHGGPAVVSGVLQALGSVPGLRPAEAGEFTRRAFANGKLNLTEVEGLADLIHAETEAQRRQALRQLDGELGHLCRGWAETLTKALAHVEAYIDFGEDDNLEEGVLEQADIEVRALQVALGAHLRDARRGQRLRSGVHVVVTGPPNAGKSSLVNLLSRKPVSIVSPEPGTTRDVLETPVDLAGFPVLLSDTAGLREGVGPVAQEGVRRARERLEQADLILAMLDASDLASPSSCNFLATVVASVGAQSPSDSSQRLLLVLNKSDLLSPEGPGPGPDLPPHLLLSCLTGEGLDGLLEALRKELAAVCGDPSTDPPLLTRARHQHHLQGCLDALGHYKQSKDLALAAEALRVARGHLTRLTGGGGTEEILDIIFQDFCVGK
B5: cyc1 F96W (Streptomyces coelicolor, UniProt Q9K499); chain MHAFPHGTTATPTAIAVPPSLRLPVIEAAFPRQLHPYWPKLQETTRTWLLEKRLMPADKVEEYADGLCYTDLMAGYYLGAPDEVLQAIADYSAWFWVWDDRHDRDIVHGRAGAWRRLRGLLHTALDSPGDHLHHEDTLVAGFADSVRRLYAFLPATWNARFARHFHTVIEAYDREFHNRTRGIVPGVEEYLELRRLTFAHWIWTDLLEPSSGCELPDAVRKHPAYRRAALLSQEFAAWYNDLCSLPKEIAGDEVHNLGISLITHHSLTLEEAIGEVRRRVEECITEFLAVERDALRFADELADGTVRGKELSGAVRANVGNMRNWFSSVYWFHHESGRYMVDSWDDRSTPPYVNNEAAGEK
B6: ASRGL1 (Homo sapiens, UniProt Q7L266); chain 1 MNPIVVVHGGGAGPISKDRKERVHQGMVRAATVGYGILREGGSAVDAVEGAVVALEDDPEFNAGCGSVLNTNGEVEMDASIMDGKDLSAGAVSAVQCIANPIKLARLVMEKTPHCFLTDQGAAQFAAAMGVPEIPGEKLVTERNKKRLEKEKHEKGAQKTDCQKNLG; chain 2 TVGAVALDCKGNVAYATSTGGIVNKMVGRVGDSPCLGAGGYADNDIGAVSTTGHGESILKVNLARLTLFHIEQGKTVEEAADLSLGYMKSRVKGLGGLIVVSKTGDWVAKWTSTSMPWAAAKDGKLHFGIDPDDTTITDLP
B7: ltaE H83N (Escherichia coli, UniProt P75823); chain MIDLRSDTVTRPSRAMLEAMMAAPVGDDVYGDDPTVNALQDYAAELSGKEAAIFLPTGTQANLVALLSHCERGEEYIVGQAANNYLFEAGGAAVLGSIQPQPIDAAADGTLPLDKVAMKIKPDDIHFARTKLLSLENTHNGKVLPREYLKEAWEFTRERNLALHVDGARIFNAVVAYGCELKEITQYCDSFTICLSKGLGTPVGSLLVGNRDYIKRAIRWRKMTGGGMRQSGILAAAGIYALKNNVARLQEDHDNAAWMAEQLREAGADVMRQDTNMLFVRVGEENAAALGEYMKARNVLINASPIVRLVTHLDVSREQLAEVAAHWRAFLAR
B8: FNO G29L (Thermobifida fusca, UniProt Q47RA9); chain MIMIMASKSSPHDLPDVSGLSIAVLGGTLDQGRGLARRFAMAGHEVILGSRSAERAQAVAAELGEGLPVRGMDNAGAAEAGDVVIVAVPWDGHRALLESLKDVLAGKIVVDCVNPLGFDKRGAYALPVEEGSAAEQAAAILPDSRVVAAFHHVSAVLLLDPEVEKVDLDVLVLGDDREATDVVRALAARIPGVRGVYGGRLRNAHQVEAFTANLISINRRYKAHAGIRITDI
B9: WlbA (Thermus thermophilus, UniProt Q72KX8); chain MTRFALTGLAGYIAPRHLKAIKEVGGVLVASLDPATNVGLVDSFFPEAEFFTEPEAFEAYLEDLRDRGEGVDYLSIASPNHLHYPQIRMALRLGANALSEKPLVLWPEEIARLKELEARTGRRVYTVLQLRVHPSLLALKERLGQEKGAKDVVLTYVTGRGKWYGKSWKVDEAKSGGLATNIGIHFFDLLAWLFGRALHVEVHARTPTVNAGYLELEGARVRWFLSIDPSFVPEPLRRQGKRTYRSIAVDGEEVEFSEGFTDLHTEVYRKTLAGEGFGLDEAAEAIRVAALLRTLPLSQPSPENRHPFLG
B10: oxdC T165V (Bacillus subtilis, UniProt O34714); chain MKKQNDIPQPIRGDKGATVKIPRNIERDRQNPDMLVPPETDHGTVSNMKFSFSDTHNRLEKGGYAREVTVRELPISENLASVNMRLKPGAIRELHWHKEAEWAYMIYGSARVTIVDEKGRSFIDDVGEGDLWYFPSGLPHSIQALEEGAEFLLVFDDGSFSENSVFQLTDWLAHTPKEVIAANFGVTKEEISNLPGKEKYIFENQLPGSLKDDIVEGPNGEVPYPFTYRLLEQEPIESEGGKVYIADSTNFKVSKTIASALVTVEPGAMRELHWHPNTHEWQYYISGKARMTVFASDGHARTFNYQAGDVGYVPFAMGHYVENIGDEPLVFLEIFKDDHYADVSLNQWLAMLPETFVQAHLDLGKDFTDVLSKEKHPVVKKKCSK
UniProt P07914, sequence (whole entry, looked up): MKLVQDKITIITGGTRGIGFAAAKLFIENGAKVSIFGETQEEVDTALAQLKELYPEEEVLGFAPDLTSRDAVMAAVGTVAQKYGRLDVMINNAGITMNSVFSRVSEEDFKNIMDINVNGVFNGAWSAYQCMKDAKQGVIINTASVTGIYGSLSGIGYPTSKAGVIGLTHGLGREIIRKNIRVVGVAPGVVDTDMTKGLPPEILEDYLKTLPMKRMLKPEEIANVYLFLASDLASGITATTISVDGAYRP
UniProt Q18B70, sequence (whole entry, looked up): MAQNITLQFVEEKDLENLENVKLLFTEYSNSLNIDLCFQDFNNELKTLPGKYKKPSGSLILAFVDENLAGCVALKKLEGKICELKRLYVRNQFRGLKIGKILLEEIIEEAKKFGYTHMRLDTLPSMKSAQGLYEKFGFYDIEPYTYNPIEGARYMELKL
UniProt Q9HXU0, sequence (whole entry, looked up): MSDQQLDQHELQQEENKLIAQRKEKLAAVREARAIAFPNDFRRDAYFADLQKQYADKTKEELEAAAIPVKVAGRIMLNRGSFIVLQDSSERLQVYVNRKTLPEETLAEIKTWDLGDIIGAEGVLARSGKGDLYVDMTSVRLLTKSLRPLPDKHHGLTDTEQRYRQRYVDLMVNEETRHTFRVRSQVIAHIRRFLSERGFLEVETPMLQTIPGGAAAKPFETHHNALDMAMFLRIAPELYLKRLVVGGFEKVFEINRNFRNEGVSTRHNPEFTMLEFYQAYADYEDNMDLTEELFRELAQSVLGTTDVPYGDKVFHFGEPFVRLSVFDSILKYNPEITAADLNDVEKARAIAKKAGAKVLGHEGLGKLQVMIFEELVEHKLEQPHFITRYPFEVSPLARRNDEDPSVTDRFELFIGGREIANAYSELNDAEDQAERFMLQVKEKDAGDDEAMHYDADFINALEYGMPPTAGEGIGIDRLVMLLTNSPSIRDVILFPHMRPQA
UniProt A8M783, sequence (whole entry, looked up): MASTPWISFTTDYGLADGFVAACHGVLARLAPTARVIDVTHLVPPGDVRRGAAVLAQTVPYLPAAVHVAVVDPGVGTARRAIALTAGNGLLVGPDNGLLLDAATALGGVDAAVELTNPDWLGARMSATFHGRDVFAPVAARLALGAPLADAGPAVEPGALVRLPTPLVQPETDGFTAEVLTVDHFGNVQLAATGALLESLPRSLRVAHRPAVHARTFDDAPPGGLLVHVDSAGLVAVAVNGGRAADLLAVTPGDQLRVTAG
UniProt P07379, sequence (whole entry, looked up): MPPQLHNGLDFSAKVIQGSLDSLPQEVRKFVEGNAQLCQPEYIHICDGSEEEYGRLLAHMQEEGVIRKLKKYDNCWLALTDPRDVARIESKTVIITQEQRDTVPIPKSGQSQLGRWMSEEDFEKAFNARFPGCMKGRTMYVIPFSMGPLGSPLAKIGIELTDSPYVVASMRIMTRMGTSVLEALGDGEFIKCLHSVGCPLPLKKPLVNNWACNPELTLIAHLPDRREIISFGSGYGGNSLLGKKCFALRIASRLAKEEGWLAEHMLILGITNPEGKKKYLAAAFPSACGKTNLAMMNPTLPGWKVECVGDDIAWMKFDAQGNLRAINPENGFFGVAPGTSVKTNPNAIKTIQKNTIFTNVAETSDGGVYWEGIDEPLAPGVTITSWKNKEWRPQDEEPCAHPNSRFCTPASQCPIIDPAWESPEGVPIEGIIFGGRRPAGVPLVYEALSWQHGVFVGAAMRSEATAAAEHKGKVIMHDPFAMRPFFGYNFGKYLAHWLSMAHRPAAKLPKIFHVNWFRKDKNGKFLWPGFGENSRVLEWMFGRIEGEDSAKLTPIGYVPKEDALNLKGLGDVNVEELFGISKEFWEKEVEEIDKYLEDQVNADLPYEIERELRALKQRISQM

For `BaiA1 (Clostridium scindens, UniProt P07914)`, the kcat was 0.867 s⁻¹ (C[C@H](CCC(=O)SCCNC(=O)CCNC(=O)[C@H](O)C(C)(C)COP(=O)(O)OP(=O)(O)OC[C@H]1O[C@@H](n2cnc3c(N)ncnc32)[C@H](O)[C@@H]1OP(=O)(O)O)[C@H]1CC[C@H]2[C@@H]3CC[C@@H]4C[C@H](O)CC[C@]4(C)[C@H]3C[C@H](O)[C@]12C; pH 8.7, 37 °C, with: NAD+).
`B1 (PRP43 F357A)` has a kcat of 12.7 ± 0.5 s⁻¹ (Nc1ccn([C@@H]2O[C@H](COP(=O)(O)OP(=O)(O)OP(=O)(O)O)[C@@H](O)[C@H]2O)c(=O)n1; pH 8, KCl 100 mM, without Pfa1, with: polyA 0.2 mM, magnesium acetate 2.5 mM).
The kcat of `B2 (cbh1)` is reported as 6.6e-05 ± 1.5e-05 s⁻¹ (O=[N+]([O-])c1ccccc1O[C@@H]1O[C@H](CO)[C@@H](O[C@@H]2O[C@H](CO)[C@@H](O)[C@H](O)[C@H]2O)[C@H](O)[C@H]1O; pH 5, 25 °C, apparent).
`protein (Chlorobium limicola, UniProt B3ECE3)` has a kcat of 0.0113 ± 0.000167 s⁻¹ (SSSS; pH 8, 25 °C, polysulfide mixture, with: hercynine 0.5 mM).
`B3 (sacB Y196F/Y247F)` gave a kcat of 309 ± 6.7 s⁻¹ (OC[C@H]1O[C@@](CO)(O[C@H]2O[C@H](CO)[C@@H](O)[C@H](O)[C@H]2O)[C@@H](O)[C@@H]1O; pH 6.9).
With `B4 (GTPBP3 E315A)` the kcat was 0.00117 ± 0.000333 s⁻¹ (Nc1nc2c(ncn2[C@@H]2O[C@H](COP(=O)(O)OP(=O)(O)OP(=O)(O)O)[C@@H](O)[C@H]2O)c(=O)[nH]1; pH 8, 37 °C, KCl 300 mM).
The kcat of `enzyme (Pseudomonas aeruginosa, UniProt Q9HXU0)` is reported as 22.8 s⁻¹ (Nc1ncnc2c1ncn2[C@@H]1O[C@H](COP(=O)(O)OP(=O)(O)OP(=O)(O)O)[C@@H](O)[C@H]1O; pH 7.5, 37 °C, apparent).
With `protein (Clostridioides difficile, UniProt Q18B70)` the kcat was 8.32 s⁻¹ (C[C@@H](O)[C@H](N)C(=O)O; pH 8, 37 °C, with: AcCoA 1 mM, L-Thr 0-10 mM).
`B5 (cyc1 F96W)` has a kcat of 0.00035 ± 2e-05 s⁻¹ (CC(C)=CCC/C(C)=C/CC/C(C)=C/CO[P@@](=O)(O)OP(=O)(O)O; pH 6.5, 30 °C, with: MgCl2 10 mM).
The kcat of `B6 (ASRGL1)` is reported as 7.7 ± 0.3 s⁻¹ (COC(=O)C[C@H](N)C(=O)O; pH 7.4, 37 °C, NaCl 100 mM).
With `protein (Actinidia deliciosa, UniProt Q32W37)` the kcat was 0.017 ± 0.001 s⁻¹ (CC(C)=CCC/C(C)=C/CC/C(C)=C/CO[P@@](=O)(O)OP(=O)(O)O; pH 7.5, with: FPP 1-100 µM).
With `protein (Salinispora arenicola, UniProt A8M783)` the kcat was 0.00833 s⁻¹ (C[S+](CC[C@H](N)C(=O)O)C[C@H]1O[C@@H](n2cnc3c(N)ncnc32)[C@H](O)[C@@H]1O; pH 7.9, 37 °C, apparent).
`protein (Actinidia chinensis, UniProt H9M5U5)` has a kcat of 0.24 ± 0.013 s⁻¹ (CC(C)=CCC/C(C)=C/CC/C(C)=C/CO[P@@](=O)(O)OP(=O)(O)O; pH 7.5, room temperature, labelled compound, with: MgCl2 20 mM).
`B7 (ltaE H83N)` has a kcat of 1.28 s⁻¹ (C[C@H](O)[C@H](N)C(=O)O; pH 7, 30 °C, potassium phosphate 20 mM, retro-aldol cleavage, with: PLP 500 µM).
For `B8 (FNO G29L)`, the kcat was 0.006 ± 0.00095 s⁻¹ (CCC[n+]1cccc(C(N)=O)c1; pH 8, 25 °C, with: F420H2 40 µM).
With `Pck1 (Rattus norvegicus, UniProt P07379)` the kcat was 54 ± 0.2 s⁻¹ (Nc1nc2c(ncn2[C@@H]2O[C@H](COP(=O)(O)OP(=O)(O)OP(=O)(O)O)[C@@H](O)[C@H]2O)c(=O)[nH]1; pH 7.5, 25 °C, with: OAA, GTP).
`B9 (WlbA)` has a kcat of 240 ± 10 s⁻¹ (O=C(O)CCC(=O)C(=O)O; pH 8.5, 25 °C, with: enzyme-bound NAD(H)).
For `B10 (oxdC T165V)`, the kcat was 3.8 ± 0.4 s⁻¹ (O=C(O)C(=O)O; pH 4.2, 25 °C).

Excerpt of the above:
`B1 (PRP43 F357A)` has a kcat of 12.7 ± 0.5 s⁻¹ (Nc1ccn([C@@H]2O[C@H](COP(=O)(O)OP(=O)(O)OP(=O)(O)O)[C@@H](O)[C@H]2O)c(=O)n1; pH 8, KCl 100 mM, without Pfa1, with: polyA 0.2 mM, magnesium acetate 2.5 mM).
The kcat of `B2 (cbh1)` is reported as 6.6e-05 ± 1.5e-05 s⁻¹ (O=[N+]([O-])c1ccccc1O[C@@H]1O[C@H](CO)[C@@H](O[C@@H]2O[C@H](CO)[C@@H](O)[C@H](O)[C@H]2O)[C@H](O)[C@H]1O; pH 5, 25 °C, apparent).
